Experimental data gathered from unrelated publications.
Lines come from different studies, so protocols differ. Values joined by “and” are separate records of one study, mostly repeats; a detail may differ.

For `C[C@H](Oc1ccc(Br)cc1-c1ccon1)C(=O)O`, “peak amplitude change” read 120% (muscle velocity recovery cycles; human, tibialis anterior muscle; 1200 mg single dose, 3.5 h post-dose, frequency ramp, first response at 30 Hz).
`CC(C)c1cc(C(=O)N2Cc3ccc(CN4CCN(C)CC4)cc3C2)c(O)cc1O`: “brain tracer uptake” “no effect” (inhibitor; mouse, U87 xenograft; i.p., 10 mg/kg, 60 min p.i., with: [11C]HSP990).
`O=C(O)CNC(=O)Cc1ccccc1` gave a sarcomere length of 1.63 µm (ventricular cardiomyocytes, C57BL/6 mouse; dose not given, 0.572 s).
With `C[C@H](CS)C(=O)N1CCC[C@H]1C(=O)O` the Met-enkephalin concentration was 4030 pM and 2730 pM and 1470 pM and 2790 pM and 2290 pM and 1620 pM (LC-MS/MS, measured: extracellular Met-enkephalin; mouse striatal brain slices; 10 µM, 20 min, with: 50 mM KCl).
`O=P(O)(O)C(Cl)(Cl)P(=O)(O)O` has a distance travelled of 30 m and 37 m and 31 m and 29 m (open field test; UT+/+ and UT-/- mice, sham; 23000 µg/mL).
With `CCCCC1(CCCC)CN(c2ccccc2)c2cc(SC)c(OCC(=O)N[C@@H](C(=O)NCC(=O)O)c3ccccc3)cc2S(=O)(=O)C1` the plasma C4 was 41.8 ng/mL (measured: 7α-hydroxy-4-cholesten-3-one; human, plasma; 2.5 mg once daily, day 2).
Under “pathway activation z-score”, `Cn1cc(Nc2nccc(-c3ccc4c(c3)CN(C3COC3)CC[C@H]4NC(=O)c3cn(C(C)(C)C)nn3)n2)cn1` is recorded as 2.65 (measured: Hepatic Fibrosis Signaling Pathway; splenic B cells, mouse; in vivo, 30 mg/kg, IgD-activated B cells; relative to: vehicle, positive = activation).
Under “log2 fold change”, `CCCCCCCC(=O)O` is recorded as -0.13 (binding, MIDAS equilibrium dialysis LC-MS; A2AR-BRIL thermostabilized; concentration not given; relative to: no-protein control).
Under “GSEA enrichment score”, `CN(C)C(=O)c1cc2cnc(Nc3ccc(N4CCNCC4)cn3)nc2n1C1CCCC1` is recorded as 0.41 (RNA-seq GSEA, measured: HALLMARK_GLYCOLYSIS; MB002 tumour; concentration not given, in vivo; relative to: vehicle, direction not given).
`NC(=O)NCCCC[C@H](N)C(=O)O` — result for “log2 fold change”: -0.0701 (binding, MIDAS equilibrium dialysis LC-MS; A2AR-BRIL thermostabilized; concentration not given; relative to: no-protein control).
`COc1ccc(Oc2cc(N(C)CCOc3ccc(CC4SC(=O)NC4=O)cc3)ncn2)cc1` (stereo not shown): “fasting blood glucose reduction” 36.1 mg/dL (type 2 diabetes patients; 0.5 mg once daily, 12 weeks; relative to: baseline).
`Cc1cc([C@H]2C[C@H]3[C@@H](C)SC(N)=N[C@@]3(c3ccc(F)cc3F)CO2)on1` — result for “brain Aβ40 level”: 1.12 ng/g (measured: Aβx-40; wild-type mouse, brain; subcutaneous, 50 mg/kg, 7 h).
With `O=C(OC(C(F)(F)F)C(F)(F)F)N1CCN(Cc2cccc(Oc3ccccc3)c2)CC1` the k3 was 0.027 min⁻¹ (PET blocking study; rhesus monkey, brain OCC; 0.01 mg/kg, compound pretreatment, with: [18F]T-401 tracer).
Under “DPPH radical scavenging”, `C/C(=N\CCNCCNCC/N=C(\C)c1c(O)c2ccccc2oc1=O)c1c(O)c2ccccc2oc1=O` is recorded as 96.7% (1 mg/mL, 60 min).
`N#Cc1ccc2c(-c3ccncc3)c(-c3ccc(F)cc3)nn2c1` — result for “log2 fold change”: -0.607 (kinase binding, competitor, MIB/MS competition, measured: NIK1; Candida albicans cell lysate; 10 µM; relative to: DMSO).
For `COc1cccc2c1C(=O)c1c(O)c3c(c(O)c1C2=O)C[C@@](O)(C(=O)CO)C[C@@H]3O[C@H]1C[C@H](N)[C@H](O)[C@H](C)O1`, the IC50 was 189 nM (organoid viability, CellTiter-Glo 3D; sample C colorectal cancer organoid, human; 6 days).
With `CC(C)c1c(C(=O)Nc2ccccc2)c(-c2ccccc2)c(-c2ccc(F)cc2)n1CC[C@@H](O)C[C@@H](O)CC(=O)O` the HDL-C was 74.7 mg/dL (cynomolgus monkey, female, serum; 40 mg/kg or 25 mg/kg, day 176, 4224 h).
With `O=C1CCc2ccc(OCCCCN3CCN(c4cccc(Cl)c4Cl)CC3)cc2N1` the treatment discontinuation was 48% (stop or switch frequency; human patients, CYP2D6 ultrarapid metabolizers; dose not given, 6 months, genetic phenotype only).
For `c1ccc(-c2n[nH]cc2-c2ccnc3ccccc23)nc1`, “log2 fold change” read 1.31 (kinase binding, competitor, MIB/MS competition, measured: CAK1; Candida albicans cell lysate; 1 µM; relative to: DMSO).
`O=C1O[C@H]([C@@H](O)CO)C(O)=C1O` has an inhibition of 63.7% (nitric oxide scavenging; 200 µM).
Under “log2 fold change”, `N#Cc1ccn2c(-c3ccncc3)c(-c3ccc(F)cc3)nc2c1` is recorded as 0.0637 (kinase binding, competitor, MIB/MS competition, measured: HSL1; Candida albicans cell lysate; 1 µM; relative to: DMSO).
Under “progressive disease, best response”, `O=C1Nc2cc3[nH]nc(-c4ccncc4)c3cc2CN1Cc1ccccc1` is recorded as 78% (RECIST v1.1; human, relapsed or refractory advanced solid tumours; intravenous, 6.4 mg/kg).
`COc1ccc(F)cc1C(=O)NCc1ccc(-c2nn([C@@H](C)C(F)(F)F)c(N)c2C(N)=O)cc1` gave a response rate of 64% (MCL patients, prior stem cell transplant; dose not given).
For `CC(CCc1ccc(O)cc1)NCCc1ccc(O)c(O)c1` (stereo not shown), “stroke volume change” read 3% (anaesthetised rat; intravenous infusion, 1 µg/kg/min for 15 min; relative to: baseline).
`NC(=O)c1cnc2[nH]ccc2c1N[C@@H]1[C@@H]2CC3C[C@H]1C[C@@](O)(C3)C2` — result for “change from baseline”: -0.93% (flow cytometry, measured: memory T cells (CD3+ CD45RA-); Japanese healthy subjects, peripheral blood; oral, 100 mg twice daily, day 4).
`Nc1nc2nc[nH]c2c(=O)[nH]1`: “log2 fold change” 0.0575 (binding, MIDAS equilibrium dialysis LC-MS; A2AR-BRIL thermostabilized; concentration not given; relative to: no-protein control).
For `OC(CCN1CCCCC1)(c1ccccc1)C1CC2C=CC1C2` (stereo not shown), “EEG Beta2-power Fz-Cz” read 0.9 µV² (resting-state EEG; healthy elderly humans; oral, 4 mg, eyes closed, LS mean).
`CC1=CC(=O)CC(C)(C)[C@@]1(O)/C=C/C(C)=C\C(=O)O` — result for “log2 fold change”: 2.35 (RNA-seq, measured: AT1G01470; Arabidopsis thaliana Col seedlings; dose not given; relative to: DMSO).
For `Nc1ncnc2c1ncn2[C@@H]1O[C@H](COP(=O)(O)OP(=O)(O)O)[C@@H](O)[C@H]1O`, “log2 fold change” read -0.474 (binding, MIDAS equilibrium dialysis LC-MS; A2AR-BRIL thermostabilized; concentration not given; relative to: no-protein control).
`C=CCn1c(=O)c2cnc(Nc3ccc(N4CCN(C)CC4)cc3)nc2n1-c1ccc2c(n1)[C@@](O)(CC)CC2`: “tumour growth inhibition” 53.1% (T47D xenograft, BALB/c nude mice; oral, 80 mg/kg once daily x 28, day 27; relative to: vehicle).
For `CC(C)[C@H](NC(=O)[C@H](Cc1ccc(O)cc1)NC(=O)[C@H](Cc1ccc(O)cc1)NC(=O)[C@@H]1CCCN1C(=O)[C@H](CCC(=O)O)NC(=O)[C@H](CCC(=O)O)NC(=O)[C@H](Cc1c[nH]c2ccccc12)NC(=O)[C@@H]1CCCN1C(=O)[C@@H](NC(=O)[C@H](CCC(N)=O)NC(=O)c1ccc2c(c1)C(=O)OC21c2ccc(O)cc2Oc2cc(O)ccc21)C(C)C)C(=O)N[C@H](C(=O)N[C@@H](CCCCN)C(=O)N[C@@H](CCCCN)C(=O)N[C@@H](CO)C(=O)N[C@@H](CO)C(=O)NCC(=O)NCC(N)=O)C(C)C`, “share of responses” read 7.7% (nerve branching; human head and neck surgery, nerves; 500 mg, improved; relative to: white light).
`CC(C)NCC(O)c1ccc(O)c(O)c1` (stereo not shown) gave a sarcomere length of 1.54 µm (ventricular cardiomyocytes, C57BL/6 mouse; dose not given, 0.492 s).
`Cc1cc([C@H]2C[C@H]3[C@@H](CF)SC(N)=N[C@@]3(c3ccc(F)cc3F)CO2)on1` gave an Aβ40 level of 0.81 ng/mL (measured: Aβx-40; Mus musculus wild-type, cerebrospinal fluid; subcutaneous, 30 mg/kg, 7 h).
`O=C(O)COP(=O)(O)O`: “log2 fold change” 0.0598 (binding, MIDAS equilibrium dialysis LC-MS; A2AR-BRIL thermostabilized; concentration not given; relative to: no-protein control).
For `C[C@H]1C[C@H]2CSC(N)=N[C@@]2(c2nc(NC(=O)c3ccc(OC(F)F)cn3)cs2)CO1`, “percent change from baseline” read -66.8% (measured: total Aβ; healthy adults, plasma; 540 mg single dose, 8 h post-dose; relative to: placebo).
`O=C(O)c1cc(O)c2cccc(O)c2n1` — result for “log2 fold change”: 0.167 (binding, MIDAS equilibrium dialysis LC-MS; A2AR-BRIL thermostabilized; concentration not given; relative to: no-protein control).
For `COc1ccc(-c2cncc(N[C@@H](C)c3cccc(NC(=O)c4cncc(C)c4)c3)n2)cc1OC`, “delta delta Ct” read -0.000833 (measured: rno-miR-193-3p; rat SU5416/hypoxia model, lung; dose not given, unit not given; relative to: SU5416/hypoxia vehicle).
For `CO[C@H]1CC[C@H](N2C(=O)CNc3ncc(-c4ccc(C(C)(C)O)nc4)nc32)CC1`, “pAKT change from baseline” read -59.7% (flow cytometry; stimulated monocytes, human, blood; 45 mg single dose, 3 h, median; relative to: baseline).
`C[C@@H](O)C=O`: “log2 fold change” 0.0911 (binding, MIDAS equilibrium dialysis LC-MS; A2AR-BRIL thermostabilized; concentration not given; relative to: no-protein control).
Under “IL6 level difference”, `N#Cc1ccc(Oc2ccc3c(c2)COB3O)cc1` is recorded as -40.8 (mouse, oxazolone dermatitis, plasma; topical, 20 mg/ear, once daily, unit not given; relative to: vehicle).
